Measurements of several laboratories.
Parts stem from different laboratories: compare values within a part only. Changes are numbered by the printed parent chain.

Sample 1 — method: RNA Bind-n-Seq; molecule type: RNA; medium: in vitro; tested at: 365 nM; baseline: no-protein control; direction: higher = stronger binding; endpoint: RBNS enrichment (R)
Target: RNA binding protein fox-1 homolog 2, RRM domain, GST-SBP tag (RBFOX2, Homo sapiens, UniProt O43251-10, residues 100-194)
Notes: natural RNA segment, single round, ends assumed
Residues (chain): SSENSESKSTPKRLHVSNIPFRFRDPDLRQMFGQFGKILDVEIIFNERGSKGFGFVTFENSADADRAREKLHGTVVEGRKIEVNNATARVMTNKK
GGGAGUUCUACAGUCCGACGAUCCUCUGAAGCCUUUAAACUCUGAAGAGAAUUGUUUCAGAGUUAUUCCAAGCACUUGUGCAACUUGGAAAAACAGACUUGGGUUGUGGGAACAGUUGACAGCGUUCUGAAAAUGGAAUUCUCGGGUGCCAA: 0.96
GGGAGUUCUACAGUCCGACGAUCGUAUGGCUUGUACCCAGAUGGCGCACUGUGCAGCCUGUGUAGCAUGCACAGUGACCCAGCUGAGUGGCAGGUGGUUGGAGGCAAGGACAUUUAUGUGGGCCACAUACCCAUGGAAUUCUCGGGUGCCAA: 0.354
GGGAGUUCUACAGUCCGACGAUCAGUUCUCACCUCCAUUUAGUCCCCCAUCAGAACAGAGGUCAGGAAUUUAGCUGGGGAGCCUAAAUUUAGUUCAGCUUACCUUUGAGAAUAGCAUCAAUUCAGACUCUCUUUGGAAUUCUCGGGUGCCAA: 0.972
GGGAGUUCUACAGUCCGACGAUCGGGUUUUAGGCUUGCCUGGGAAGCUACAGUCAAGGUGCAUUCUGGGAGCUACUCAUCCCCAGCAGUUAGCGCUCCGCCCCGGUUGACUCUUGAUGGCUUUGCGGAGCCCCUGGAAUUCUCGGGUGCCAA: 0.233
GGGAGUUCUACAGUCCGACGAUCAGAAUCCCUGUUCCCUAUGUCACGUUCCAGCAUUGUAUAGCACAGUUCCAUGUCACAAACAGGAAGGUUAGAAACACUAAGGUCUGUGAACAUCACUGCUGCAGCGAGGCUGGAAUUCUCGGGUGCCAA: 0.295
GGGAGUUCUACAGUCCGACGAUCAAGACCAGGCUGACCUUGAACUUACAGAGAUCCACCUCCCUGCCUCCCGAGUGCUGGAGCUAAUGGGGAUCACCACCACAGCCCAGCUCAAGUUCUUUCUCUUGGUUAGUUGGAAUUCUCGGGUGCCAA: 0.217
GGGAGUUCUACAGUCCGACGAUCACCCAUCAGGGGUGUAGCACAGGGUUAGCCAAGCCCCUGUGGGGUGCUUGGAUCAGGAGAGGAUACCUCAGUGGUUAAGGUUCUGAUGGACGCACAUAUACAUAGAUGUAUGGAAUUCUCGGGUGCCAA: 0.331
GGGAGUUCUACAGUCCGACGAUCGUGUAGCAGCCUCCAGGCAGGAUUCAGCACAACACUGGGGAGUCACCCUUCCCUCGGGCCUCUGCCUACCAACAACUGGGCUUAUCACUGGGAAAACACAAAAAAUUACAUGGAAUUCUCGGGUGCCAA: 0.471

Sample 2 — target: CCNA2, cyclin fold, Cln2 fusion (human); method: yeast growth competition, sequencing; medium: yeast; notes: weak parent motif; baseline: not given; direction: higher = stronger binding; endpoint: normalised enrichment score
Starting sequence: SLBP docking peptide (human); ARYKRKLLINDFG
ARYKRKPLINDFG [L7P]: 1.13
ARYKRWLLINDFG [K6W]: 2.3
ARYKRKLSINDFG [L8S]: 0.565
ARYKRKLLINYFG [D11Y]: 2.75
LRYKRKLLINDFG [A1L]: 0.229
ARYKRKLMINDFG [L8M]: 1.46
ARYKRKLLRNDFG [I9R]: 0.762
ARYKRKLLIYDFG [N10Y]: 1.57
ARYKRKLLLNDFG [I9L]: 1.54
ARYKRKKLINDFG [L7K]: 0.491
ARYKRKLLINDSG [F12S]: 0.817
ARYKRKLLINCFG [D11C]: 2.18
ARYKPKLLINDFG [R5P]: 0.848
ARYKQKLLINDFG [R5Q]: 0.109
ARYKRKLLINPFG [D11P]: 2.64
ARYKWKLLINDFG [R5W]: 0.719
ARYKRSLLINDFG [K6S]: 0.917
ARYKRKNLINDFG [L7N]: 1.55
ARYKKKLFINDFG [R5K L8F]: 1.54

Sample 3 — method: protein binding microarray; molecule type: double-stranded DNA, one strand shown; medium: in vitro; tested at: not given; baseline: not given; direction: higher = stronger binding; endpoint: E-score
Target: Histone acetyltransferase KAT6A, both winged helices, GST fusion (KAT6A, Homo sapiens, UniProt Q92794, residues 1-181)
Notes: 8-mer, flanks averaged, mean of 2 arrays, mostly near background
Construct (chain): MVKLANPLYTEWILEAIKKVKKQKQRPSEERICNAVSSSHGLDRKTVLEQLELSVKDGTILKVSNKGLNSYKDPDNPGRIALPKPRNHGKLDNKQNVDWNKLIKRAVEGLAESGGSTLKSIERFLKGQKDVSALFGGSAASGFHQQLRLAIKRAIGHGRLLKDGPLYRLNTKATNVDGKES
ACAGCAAG: -0.206
ACAACGCC: 0.178
CAGCGCGA: 0.25
CGGTGCTA: 0.13
CTCTTTGA: -0.0249
CACAGGAG: -0.0623
ACCATCTG: -0.0632
GATCTACC: -0.038
AATGGTGA: -0.0992
CCGATCCA: 0.0472
CCATTGCC: -0.11
GCACTCCA: -0.0858
AGGTCACG: -0.00253
GCCCTGCA: 0.0241
GTGCAAAA: -0.066
ATGACGCC: 0.0863
AAGGTTAA: 0.0353
AAAATCAC: -0.133
GCTGTTCC: 0.0383
AAAGTGAT: -0.173
AGGACTGC: -0.159
AATACCGC: 0.256

Sample 4 — target: DBP, bZIP domain (human); method: DHFR protein complementation; medium: yeast; baseline: wild-type JUN-FOS pair; direction: higher = stronger binding; endpoint: binding fitness
Notes: single substitutions, most at no-binding floor
Starting sequence: JUN, bZIP domain (human); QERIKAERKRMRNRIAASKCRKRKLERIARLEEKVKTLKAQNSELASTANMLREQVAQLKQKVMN; partner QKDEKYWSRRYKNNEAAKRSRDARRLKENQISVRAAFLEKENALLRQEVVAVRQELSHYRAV
E54L: -1.52 natural log
L45T: -1.49 natural log
A29V: -1.49 natural log
V35M: -1.51 natural log
E44P: -1.51 natural log
L38V: -1.48 natural log
A57P: -1.53 natural log
V35I: -1.54 natural log
Q41H: -1.61 natural log
S43N: -1.57 natural log
S47A: -1.43 natural log
A40G: -1.44 natural log
I28N: -1.47 natural log
L31W: -1.49 natural log
M51F: -1.49 natural log
T48Y: -1.58 natural log
N42K: -1.5 natural log
Q55M: -1.37 natural log
K39S: -1.41 natural log
R53F: -1.41 natural log
L52C: -1.46 natural log
K36E: -1.53 natural log
